{"data": "Published values pooled from the literature", "note": "Compare with care: the assays were run in different laboratories. ± gives the spread as reported."}
{"Compound": "N[C@H]1C(O)O[C@H](CO)[C@@H](O)[C@@H]1O (some centres unmarked)", "system": "aqueous solution", "setting": "30 mM, together with: glucose", "quantity": "osmolality", "value": "26 mOsmol/kg"}
{"Compound": "O=C(N/N=C/c1ccccc1O)c1ccncc1", "system": "DMEM cell medium", "setting": "115 µM, 7 days, -80 °C, long-term storage", "quantity": "stability", "value": "99.2%"}
{"Compound": "CCOc1c([C@H](C)n2nc(C)c3c(N)ncnc32)cc(Cl)c(F)c1[C@@H]1CNC(=O)C1", "assay": "item: QTcF change ≤30 ms", "system": "previously treated B-cell malignancy", "setting": "oral, 20 mg once daily, baseline QTcF ≤450 ms", "how to read": "reference: baseline", "quantity": "ECG observations", "value": "95.8%"}
{"Compound": "CC[C@@](O)(c1cnc(C(F)(F)F)c(Cl)c1)c1c2ccn(C3CC3)c(=O)c2nn1C", "system": "rat Sprague-Dawley male, blood", "setting": "intravenous, 1 mg/kg", "quantity": "CLint,u", "value": "27.3 mL/min/kg"}
{"Compound": "CNC(=O)c1ccc(-c2cnc3ncc(Cc4ccc5ncccc5c4)n3n2)cc1F", "system": "Japanese patients", "setting": "oral, 400 mg twice daily, grade 3/4", "quantity": "Tremor patients", "value": "0%"}
{"Compound": "CCn1cnc2c(=O)[nH]c(N)nc21.NCCNCCN.[Pt+2]", "quantity": "logP (octanol/water)", "value": "-1.59 ± 0.28"}
{"Compound": "Cc1nc2c([nH]1)c(=O)n(C)c(=O)n2Cc1ccco1", "system": "male rat liver microsomes", "setting": "50 µM, 3 h, together with: DHA-Na 5 mg/L", "quantity": "inhibition", "value": "23.5 ± 3.61%"}
{"Compound": "CO[C@H]1/C=C/O[C@@]2(C)Oc3c(C)c(O)c4c(O)c(c(/C=N/N5CCN(C)CC5)c(O)c4c3C2=O)NC(=O)/C(C)=C\\C=C\\[C@H](C)[C@H](O)[C@@H](C)[C@@H](O)[C@@H](C)[C@H](OC(C)=O)[C@@H]1C", "assay": "item: ventricular extrasystoles", "system": "healthy human participants", "setting": "oral, 600 mg, together with: gepotidacin 1500 mg", "quantity": "adverse event incidence", "value": "0%"}
{"Compound": "COc1ccc(Oc2cc(N(C)CCOc3ccc(CC4SC(=O)NC4=O)cc3)ncn2)cc1 (centres unmarked)", "system": "type 2 diabetes patients, serum", "setting": "0.5 mg once daily, 12 weeks, real-world retrospective study", "quantity": "creatinine reduction", "value": "0.06 mg/dL"}
{"Compound": "CCn1cc(C(=O)N2CCOCC2)c(=O)c2cc(NC3Cc4ccccc4C3)cnc21", "system": "human, fasted, plasma", "setting": "oral, 900 mg single dose, tablet, arithmetic mean", "quantity": "AUC(0-inf)", "value": "27000 ng·h/mL"}
{"Compound": "COC(=O)/C=C/c1cc(C(=O)NCc2ccc(C)cc2)cc(-c2ccc3ncnn3c2)c1", "system": "mouse, plasma", "setting": "37 °C", "quantity": "time to below detection limit", "value": "≤ 30 min"}
{"Compound": "CC(=O)N=S(=O)(O)c1ccc(N/C=C2\\C(=O)Nc3ccc4ncsc4c32)cc1", "system": "octanol/buffer", "setting": "pH 11", "quantity": "logP", "value": 1.01}
{"Compound": "Cc1ccc([C@@H]2O[C@H](CO)[C@@H](O)[C@H](O)[C@H]2O)cc1Cc1ccc(-c2ccc(F)cc2)s1", "system": "Japanese type 2 diabetes patients", "setting": "400 mg, day 2, 24 h urine collection", "how to read": "reference: baseline", "quantity": "urinary calcium excretion change", "value": "-34.3 mg"}
{"Compound": "COc1ccnc(C[S+]([O-])c2nc3ccc(OC(F)F)cc3[nH]2)c1OC (centres unmarked)", "system": "human", "setting": "intravenous, median", "quantity": "dose-normalised Cmax", "value": "5.5 µg/mL per mg/kg"}
{"Compound": "CC(C)=CCC1=C(O)C(=O)c2ccccc2C1=O", "assay": "cyclic voltammetry", "system": "CH2Cl2, Bu4NPF6", "setting": "0.1 mM", "how to read": "reference: Ag/AgCl sat. KOH", "quantity": "Epc2 cathodic peak potential", "value": "-0.42 V"}
{"Compound": "O=C(COc1ccccc1[N+](=O)[O-])Nc1ccccc1N1CCOCC1", "system": "octanol/buffer", "setting": "pH 11, known kinase inactives set", "quantity": "logP", "value": 3.22}
{"Compound": "C=CC(=O)N1CCC(c2ccc(C(N)=O)c(-c3ccc(Oc4ccccc4)cc3)n2)CC1", "assay": "CTCAE 4.03", "system": "patients with relapsed/refractory MCL", "setting": "oral, dose not given", "quantity": "incidence of serious bladder cancer", "value": "0.9%"}
{"Compound": "CC1(C)C(/C=C/C=C/C=C/C=C2\\N(CCCCS(=O)(=O)O)c3ccc4ccccc4c3C2(C)C)=[N+](CCCCS(=O)(=O)[O-])c2ccc3ccccc3c21", "system": "toluene", "setting": "20 °C", "quantity": "emission maximum", "value": "824 nm"}
{"Compound": "COc1ccc2c(c1)CN(C(=O)CCN1CCC(Cc3ccccc3)CC1)CC[S@@+]2[O-]", "assay": "telemetry", "system": "conscious male beagle dogs", "setting": "intravenous, 4 mg/kg, 24 h", "quantity": "PQ interval", "value": "91 ± 10 ms"}
{"Compound": "O=C(Nc1nc2cccc(-c3ccc(CN4CCS(=O)(=O)CC4)cc3)n2n1)C1CC1", "assay": "item: investigations", "system": "human rheumatoid arthritis patients", "setting": "oral, 75 mg once daily, 4 weeks, regardless of relatedness", "quantity": "treatment-emergent adverse events", "value": "0%"}
{"note": "For quick reference, copied from above:"}
{"Compound": "CNC(=O)c1ccc(-c2cnc3ncc(Cc4ccc5ncccc5c4)n3n2)cc1F", "system": "Japanese patients", "setting": "oral, 400 mg twice daily, grade 3/4", "quantity": "Tremor patients", "value": "0%"}
{"Compound": "Cc1ccc([C@@H]2O[C@H](CO)[C@@H](O)[C@H](O)[C@H]2O)cc1Cc1ccc(-c2ccc(F)cc2)s1", "system": "Japanese type 2 diabetes patients", "setting": "400 mg, day 2, 24 h urine collection", "how to read": "reference: baseline", "quantity": "urinary calcium excretion change", "value": "-34.3 mg"}
{"Compound": "Cc1nc2c([nH]1)c(=O)n(C)c(=O)n2Cc1ccco1", "system": "male rat liver microsomes", "setting": "50 µM, 3 h, together with: DHA-Na 5 mg/L", "quantity": "inhibition", "value": "23.5 ± 3.61%"}
